# Experimental data of several laboratories.
# Each line is one published result; not all experiments were run side by side.
# Cell line: HT-1080
Structure (SMILES),assay,setting,scale,quantity,result
Cn1ncc(-c2ccc3c(=O)[nH]nc(CN)c3c2)c1-c1c(F)c(Cl)cc(OC2CC2)c1C#N,"cell viability, inhibitor, CellTiter-Glo","120 h, baseline-subtracted",,IC50,80 nM
CCOc1cncc(-c2ccc(NC(=O)C3(c4ccnc(NS(=O)(=O)C5CC5)n4)CCOCC3)nc2)n1,"cell proliferation, CellTiter-Glo","72 h, Sarcoma cancer",,IC50,61 nM
CC(C)c1ccc(N(C)c2ccc3c(c2)OCC[C@H]3CNc2cnccc2C(=O)O)cc1,"cell growth or viability, ATP luminescence",7 days,,IC50,14.1 nM
Cc1cc(C)nc(NC(=S)N2CCN(c3ccncc3)CC2)c1,"cell viability, CellTiter-Glo",4 days,,EC50,> 100 µM
NCCOc1cc(NC(=O)c2cc(Cl)cc(C(=O)Nc3cc(OCCN)c4ccccc4n3)n2)nc2ccccc12,"cell viability, CellTiter-Glo",72 h,baseline: IC50 HT-1080 over WI-38,selectivity ratio,0.9
CNS(=O)(=O)Nc1nccc(Cc2c(C)c3ccc(Oc4ncccc4F)cc3oc2=O)c1F,cell viability,7 days,,IC50,2.16 nM
O=C(Nc1cc(OCCN2CCCC2)c2ccccc2n1)c1cccc(C(=O)Nc2cc(OCCN3CCCC3)c3ccccc3n2)n1,"cell viability, CellTiter-Glo",72 h,baseline: IC50 HT-1080 over WI-38,selectivity ratio,5.5
O=C(NCc1cc(F)cc(F)c1)[C@@]1(O)CCN(c2ccc3[nH]ccc3c2)C1=O,colony formation,,,IC50,71 nM
